Experimental data collected from several papers.
Each line is one published result; not all experiments were run side by side. Numbers after ± are the reported error.

SMILES | target or system | assay | test system | conditions | how to read | endpoint | result
O=C(N1CCC2(CC1)CC(CN1CCCCS1(=O)=O)CCO2)C1(c2ccccc2F)CCCC1 (stereo not shown) | Venezuelan equine encephalitis virus | viral replication | – | – | – | EC50 | 1.58 µM
O=c1ccn([C@@H]2O[C@](F)(CO)[C@@H](O)[C@H]2O)c(=O)[nH]1 | Mammarenavirus lassaense | viral replication | HeLa | – | – | EC50 | 2.58 µM
O=C(N1CCC2(CC1)CC(CN1CCCCS1(=O)=O)CCO2)C1(c2ccccc2)CCCC1 (stereo not shown) | Venezuelan equine encephalitis virus | viral replication | – | – | – | EC50 | 0.501 µM
O=C1c2c(O)c(=O)ccn2N([C@@H]2c3ccccc3SCc3c2ccc(F)c3F)[C@@H]2COCCN12 | Influenza A virus | viral replication | A(H7N7) A/environment/Bangladesh/41896/2019 | mean | – | EC50 | 0.00028 ± 7e-05 µM
Nc1ncnc2c([C@@H]3N[C@H](CO)[C@@H](O)[C@H]3O)c[nH]c12 | Sudan ebolavirus | viral replication | HeLa, Boniface | 6.3 µM | – | inhibition | 65.9%
NC(=O)c1ncn([C@@H]2O[C@H](CO)[C@@H](O)[C@H]2O)n1 | influenza A virus | viral replication | MA104, H7N9 | – | – | EC50 | 3.7 µM
CNC(=O)[C@@H](NC(=O)[C@H](CC(C)C)[C@H](O)C(=O)NO)C(C)(C)C | Daboia russelii venom proteases (SVMP) | protease activity, inhibitor | KL population | 10 µM, added: azocasein substrate | baseline: venom alone | remaining activity | 0%
CC(C)(Cc1c[nH]c2ccccc12)NCC(O)COc1ccccc1C#N (stereo not shown) | SARS-CoV-2 | viral replication, high-content imaging screen | – | cell-based | – | EC50 | > 100 µM
Cn1cnc(Cn2c(=O)[nH]/c(=N\c3cc4cn(C)nc4cc3Cl)n(Cc3cc(F)c(F)cc3F)c2=O)n1 | – | – | human, normal renal function | oral, 375 mg, treatment-related decreased GFR, Mild severity | – | patients with adverse event | 0%
CCCCOc1cc(C(=O)NCCN(CC)CC)c2ccccc2n1 | SARS-CoV-2 | viral replication, high-content imaging screen | – | cell-based | – | EC50 | 29.5 µM
CC[C@H](C)[C@H](NC(=O)[C@H](CC(C)C)NC(=O)[C@H](Cc1c[nH]c2ccccc12)NC(=O)[C@H](CCC(N)=O)NC(=O)[C@@H](NC(=O)[C@H](Cc1ccccc1)NC(=O)[C@H](C)NC(=O)[C@H](CCCCNC(=O)COCCOCCNC(=O)COCCOCCNC(=O)CC[C@H](NC(=O)CCCCCCCCCCCCCCCCCCC(=O)O)C(=O)O)NC(=O)[C@H](CCC(N)=O)NC(=O)[C@H](C)NC(=O)[C@@H](NC(=O)[C@H](CCCCN)NC(=O)[C@H](CC(=O)O)NC(=O)[C@H](CC(C)C)NC(=O)C(C)(C)NC(=O)[C@@H](NC(=O)[C@H](CO)NC(=O)[C@H](Cc1ccc(O)cc1)NC(=O)[C@H](CC(=O)O)NC(=O)[C@H](CO)NC(=O)[C@@H](NC(=O)[C@H](Cc1ccccc1)NC(=O)[C@@H](NC(=O)CNC(=O)[C@H](CCC(=O)O)NC(=O)C(C)(C)NC(=O)[C@@H](N)Cc1ccc(O)cc1)[C@@H](C)O)[C@@H](C)O)[C@@H](C)CC)[C@@H](C)CC)C(C)C)C(=O)N[C@@H](C)C(=O)NCC(=O)NCC(=O)N1CCC[C@H]1C(=O)N[C@@H](CO)C(=O)N[C@@H](CO)C(=O)NCC(=O)N[C@@H](C)C(=O)N1CCC[C@H]1C(=O)N1CCC[C@H]1C(=O)N1CCC[C@H]1C(=O)N[C@@H](CO)C(N)=O | – | measured: anti-drug antibodies | healthy subjects | 0.5 mg, postbaseline, multiple ascending dose | – | subjects with treatment-emergent ADA | 0%
NC(CO)(CO)CCc1ccc(Sc2cccc(OCc3ccccc3)c2)cc1Cl | SARS-CoV-2 | viral replication, high-content imaging screen | – | cell-based | – | EC50 | > 100 µM
CCCCCCOc1ccc(C(=O)NCC2CCOC3(CCN(C(=O)C4(c5ccccc5)CCCC4)CC3)C2)cc1 (stereo not shown) | Venezuelan equine encephalitis virus | viral replication | – | – | – | EC50 | > 39.8 µM

For quick reference, copied from above:
SMILES | target or system | assay | test system | conditions | how to read | endpoint | result
NC(=O)c1ncn([C@@H]2O[C@H](CO)[C@@H](O)[C@H]2O)n1 | influenza A virus | viral replication | MA104, H7N9 | – | – | EC50 | 3.7 µM
